Published values gathered from unrelated publications.
Each line is one published result; not all experiments were run side by side.

SMILES | test system | conditions | AUC(0-inf)
Cc1cc(NCCOC(C)C)c2nc(N3CCOC[C@H]3C)cc(=O)n2c1 | C57BL/6 mouse, plasma | intraperitoneal, 10 mg/kg, single dose | 16500 ng·h/mL
Cc1ncsc1-c1ccc(CNC(=O)[C@@H]2C[C@@H](O)CN2C(=O)[C@@H](NC(=O)COCC(C)(COCCOCCOCCNC(=O)C[C@@H]2N=C(c3ccc(Cl)cc3)c3c(sc(C)c3C)-n3c(C)nnc32)COCCOCCOCCNC(=O)C[C@@H]2N=C(c3ccc(Cl)cc3)c3c(sc(C)c3C)-n3c(C)nnc32)C(C)(C)C)cc1 | male C57BL/6 mouse, plasma | intravenous, 5 mg/kg, single dose | 27600 ng·h/mL
CC[C@H](C)/C=C/C=C/C=C/C(O)=C/C(=O)C(F)(F)F | female C57BL/6 mouse, plasma | oral, 25 mg/kg | 18800 ng·h/mL
N#CCCC1CCN(C(=S)c2ccc(-c3cc(Cl)ccc3Cl)o2)CC1 | male BALB/c mouse, plasma | oral, 10 mg/kg | 14.5 ng·h/mL
O=C1CCC(N2Cc3cc(C(=O)O)c(F)cc3C2=O)C(=O)N1 (stereo not shown) | male CD-1 mouse, plasma | intravenous, 1 mg/kg | 548 ng·h/mL
CC[C@H](C)[C@@H]1NC(=O)[C@@](C)(NC(=O)[C@H](CCCNC(=N)N)NC(=O)[C@H](CC(C)C)NC(=O)[C@]2(C)CCCC=CCCC[C@](C)(NC(C)=O)C(=O)N[C@@H](CC(C)C)C(=O)N[C@@H](CCC(N)=O)C(=O)N2)CCCC=CCCC[C@@](C)(C(=O)N[C@@H](CC(C)C)C(=O)N[C@@H](Cc2ccc3ccccc3c2)C(=O)NCCC(=O)NCCC(N)=O)NC(=O)[C@H](CCCNC(=N)N)NC(=O)[C@H](CCC(N)=O)NC1=O | male BALB/c mouse, plasma | intraperitoneal, 30 mg/kg | 996000 ng·h/mL
COc1ccccc1/C=C/CNCC(O)COc1ccc(Nc2ccccc2)cc1 (racemic) | mouse, plasma | intraperitoneal, 10 mg/kg | 1140 ng·h/mL
COc1cc(OCCN2CCOCC2)cnc1-c1nc2cc(OC(F)(F)F)ccc2[nH]1 | mouse, plasma | oral, 100 mg/kg | 0.037 µM·h
O=C(O)c1ccc(/C=C2\SC(=S)N(Cc3cccc(C(F)(F)F)c3)C2=O)cc1 | C57BL/6 mouse, blood | oral, 10 mg/kg | 8230 ng·h/mL
CCn1cc(-c2cc(Cn3ccnc3)cc3c2CCN([C@H](c2cc(OC)ccn2)C2CC2)C3=O)c(C(F)(F)F)n1 | male CD-1 mouse, plasma | oral, 50 mg/kg | 20300 ng·h/mL
COC(=O)C1=CNC=C(C(=O)OC)C1c1ccc(F)c(C(F)(F)F)c1 | male C57BL/6 mouse, plasma | oral, 50 mg/kg | 16400 ng·h/mL
Cc1cc(NCC(=O)C(C)(C)C)c2nc(N3CCOC[C@H]3C)cc(=O)n2c1 | C57BL/6 mouse, plasma | intraperitoneal, 10 mg/kg, single dose | 2340 ng·h/mL
Cc1cc(NC(=O)[C@H](O)c2cc(F)cc(F)c2)ccc1-c1cnc(N)c(C(=O)NC(C)C)c1 | female nude mouse, plasma | oral, 30 mg/kg, single dose | 15600 ng·h/mL
C[C@@H](Nc1nc2c(cnn2C(C)(C)C)c(=O)n1Cc1cccc(F)c1)c1ccc(Cl)cc1 | C57BL/6 mouse, plasma | intravenous, 2.5 mg/kg | 1510 ng·h/mL
COc1cnc2cccc(N3CCc4c(cc(Cn5ccnc5)cc4-c4cn(C)nc4C(F)(F)F)C3=O)c2c1 | male CD-1 mouse, plasma | intraperitoneal, 100 mg/kg | 178000 ng·h/mL
C/C(N)=N/C(=N\S(=O)(=O)c1ccc(C(F)(F)F)cc1)N1C[C@H](c2ccccc2)C(c2ccc(Cl)cc2)=N1 | male C57BL/6 mouse, brain | oral, 10 mg/kg | 385 ng·h/mL
CCOC(=O)c1nc2cc(Cl)c(Cl)cc2nc1N1CCN(C(=O)Nc2ccc(N3CCNCC3)cc2)CC1 | male mouse, plasma | intravenous, 3 mg/kg | 755 ng·h/mL
Cn1ccc(-c2cc(Cl)c(Cl)c3[nH]c4c(c23)CN(C(=O)CO)CC4)n1 | C57BL/6 mouse, blood | oral, 100 mg/kg | 271 µM·h
COc1ccc2nc(NC(c3ccc(O)cc3)P(=O)(OC)OC)sc2c1 (stereo not shown) | mouse, plasma | intravenous, 10 mg/kg | 2870 ng·h/mL
Cn1c2cc([S+](C)[O-])sc2c2cnn(Cc3cccc(N)c3)c(=O)c21 (stereo not shown) | male BALB/c mouse, plasma | oral, 10 mg/kg, single dose | 24400 ng·h/mL
Nc1ccc(-c2cc(Cl)c(Cl)c3[nH]c4c(c23)CN(C(=O)CO)CC4)cn1 | C57BL/6 mouse, blood | intravenous, 0.5 mg/kg | 0.602 µM·h
OCCn1nc(-c2ccccc2)c2c(Cl)c(-c3ccccc3)nnc21 | mouse, plasma | intraperitoneal, 3 mg/kg | 1.71 µM·h

Some of these lines once more:
SMILES | test system | conditions | AUC(0-inf)
C/C(N)=N/C(=N\S(=O)(=O)c1ccc(C(F)(F)F)cc1)N1C[C@H](c2ccccc2)C(c2ccc(Cl)cc2)=N1 | male C57BL/6 mouse, brain | oral, 10 mg/kg | 385 ng·h/mL
OCCn1nc(-c2ccccc2)c2c(Cl)c(-c3ccccc3)nnc21 | mouse, plasma | intraperitoneal, 3 mg/kg | 1.71 µM·h
Cc1cc(NCCOC(C)C)c2nc(N3CCOC[C@H]3C)cc(=O)n2c1 | C57BL/6 mouse, plasma | intraperitoneal, 10 mg/kg, single dose | 16500 ng·h/mL
